Assay results collected from several papers.
Each line is one published result; not all experiments were run side by side. ± marks the error that the study gave.

Compound = C=CC(=O)Nc1cc(Nc2ncc(C(=O)OC(C)C)c(-c3cn(C)c4ccccc34)n2)c(OC)cc1N(C)CCN(C)C; test system = NCI-H2073 parental xenograft (EGFR wild-type), BALB/c nude mice; conditions = 30 mg/kg once daily, 21 days; tumour growth inhibition = 105%
Compound = CC(=O)O[C@H]1C(=O)[C@@]2(C)[C@H]([C@H](OC(=O)c3ccccc3)[C@]3(O)C[C@H](OC(=O)[C@H](O)[C@@H](NC(=O)c4ccccc4)c4ccccc4)C(C)=C1C3(C)C)[C@]1(OC(C)=O)CO[C@@H]1C[C@@H]2O; test system = C57BL/6J mice Lewis lung carcinoma; conditions = intravenous, 25 mg/kg, day 11; scale = relative to: vehicle; tumour growth inhibition = 75.3%
Compound = C[C@@H]1COCCN1c1cc([C@]2(O)C[C@H]3CC[C@@H](C2)O3)c2cnn(-c3cc[nH]n3)c2n1; test system = LoVo xenograft mice; conditions = 3 mg/kg once daily for 7 days, day 17; tumour growth inhibition = 9.07 ± 16%
Compound = CCCCC(=O)Nc1ccc(-c2ccc3ncn(CCC)c(=O)c3c2)cn1; test system = mice, HCC827 xenograft; conditions = oral, 20 mg/kg daily, six days per week, three weeks; scale = relative to: vehicle; tumour growth inhibition = 62.8%
Compound = C=CCn1c(=O)c2cnc(Nc3ccc(N4CCN(C)CC4)cc3)nc2n1-c1ccc2c(n1)[C@@](O)(CC)CC2; test system = PC-9 xenograft, CB17 SCID mice; conditions = oral, 80 mg/kg, day 18, once daily x 19; tumour growth inhibition = 68.9%
Compound = CCNc1nc2c(c(N3CC(=O)Nc4cc(OC)ccc43)n1)CCC2; test system = mice, A-375/TxR xenograft; conditions = intravenous, 4 mg/kg twice weekly, 3 weeks; tumour growth inhibition = 76.6%
Compound = NCc1cc2c(cc1F)C(=O)N(C1CCC(=O)NC1=O)C2 (stereo not shown); test system = mice, HCC PDX models; conditions = oral, 100 mg/kg twice daily, 4 of 10 models; tumour growth inhibition = > 50%
Compound = COc1ccc(OCc2ccc([N+](=O)[O-])cc2)cc1-c1c[nH]c2ncc(-c3cncc(C(=O)N(C)C)c3)cc12; test system = NSG mice, K562 xenograft; conditions = ip, 0.0268 mmol/kg once daily, 16 days; tumour growth inhibition = 57%
Compound = CC(=O)O[C@@]12CO[C@@H]1C[C@H](O)[C@@]1(C)C(=O)[C@H](O)C3=C(C)[C@@H](OC(=O)[C@H](O)[C@@H](NC(=O)OC(C)(C)C)c4ccccc4)C[C@@](O)([C@@H](OC(=O)c4ccccc4)[C@H]21)C3(C)C; test system = mice, MDA-MB-231 xenograft; conditions = dose not given, 19 days; scale = relative to: vehicle; tumour growth inhibition = 64%
Compound = NC1(C(=O)N[C@@H](CCO)c2ccc(Cl)cc2)CCN(c2ncnc3[nH]ccc23)CC1; test system = MDA-MB-468 xenograft, mice; conditions = 25 mg/kg; scale = relative to: vehicle; tumour growth inhibition = 50%

For quick reference, copied from above:
Compound = CCCCC(=O)Nc1ccc(-c2ccc3ncn(CCC)c(=O)c3c2)cn1; test system = mice, HCC827 xenograft; conditions = oral, 20 mg/kg daily, six days per week, three weeks; scale = relative to: vehicle; tumour growth inhibition = 62.8%
